Measured values from different studies.
Numbered parts are unrelated; each lists some results of a single study.

Study 1
Target: ATP-dependent RNA helicase DDX3X, helicase core (DDX3X, Homo sapiens, UniProt O00571, residues 132-607)
Sequence of UniProt O00571 (132-607, looked up): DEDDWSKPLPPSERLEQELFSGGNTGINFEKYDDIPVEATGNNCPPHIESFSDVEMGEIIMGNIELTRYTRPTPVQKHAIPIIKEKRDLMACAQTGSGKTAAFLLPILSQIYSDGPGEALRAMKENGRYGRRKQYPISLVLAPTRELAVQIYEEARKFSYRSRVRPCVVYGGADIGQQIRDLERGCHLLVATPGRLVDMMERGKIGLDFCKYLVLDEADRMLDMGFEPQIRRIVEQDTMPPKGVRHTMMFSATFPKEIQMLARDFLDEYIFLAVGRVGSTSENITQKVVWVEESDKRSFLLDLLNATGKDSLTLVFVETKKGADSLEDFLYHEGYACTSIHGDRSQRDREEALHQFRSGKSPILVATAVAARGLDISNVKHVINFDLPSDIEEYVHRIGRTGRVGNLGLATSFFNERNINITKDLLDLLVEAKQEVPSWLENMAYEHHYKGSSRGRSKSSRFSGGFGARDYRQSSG
Method: RNA Bind-n-Seq
Form: RNA
Medium: in vitro
Tested at: 90 pmol
Setting: 4-mer, random 30-nt RNA, single round
With: 3 µM iPr-DMDA-PatA, 2 mM ADP, 2 mM phosphate
Reference: input library
Reading: higher = stronger binding
Oligonucleotide | 4-mer enrichment [fold]
CAUA | 1.07
CGCA | 0.854
ACUA | 1.14
UCCG | 0.871
CAGU | 0.891
AGGG | 1.07
GAAU | 1.31
UGCU | 0.712
GGCU | 0.683
UCCA | 1.09
UGGG | 0.835
GUGG | 0.869
UCAU | 0.949
CUGU | 0.786
CGUA | 0.925
GCCG | 0.715

Study 2
Target: Sal-like protein 4, full length isoform B (SALL4, Homo sapiens, UniProt Q9UJQ4-2, residues 1-616)
Method: universal PBM
Form: double-stranded DNA, one strand shown
Medium: in vitro
Tested at: not given
Setting: 8-mer, flanks averaged, mean of replicates
Reading: higher = stronger binding
Oligonucleotide | E-score
ACTTTGGC | -0.181
GAATCACA | -0.152
AATCGTAA | 0.255
AGGCCAAG | -0.15
AGAAAGTA | 0.167
GCACCGCA | -0.299
CCGTCGGC | -0.402
GGGTTGCA | -0.0284
CACTATAC | 0.149
CGCATGAA | -0.0471
GCTAAGCA | -0.126
CCCTAAGA | -0.24
CAGGACGA | -0.189
ACTTATTA | 0.394
AAAGAAAG | 0.154
AGCACTGC | -0.133
GTATCGAA | 0.0974
GATGACAC | -0.129
CGGCAGGA | -0.361
GGATAAAA | 0.186

Study 3
Target: RNA binding protein fox-1 homolog 2, RRM domain, GST-SBP tag (RBFOX2, Homo sapiens, UniProt O43251-10, residues 100-194)
Method: RNA Bind-n-Seq
Form: RNA
Medium: in vitro
Tested at: 365 nM
Setting: natural RNA segment, single round, ends assumed
Reference: no-protein control
Reading: higher = stronger binding
Shared flanks, not repeated: GGGAGUUCUACAGUCCGACGAUC … UGGAAUUCUCGGGUGCCAA
Target sequence (chain): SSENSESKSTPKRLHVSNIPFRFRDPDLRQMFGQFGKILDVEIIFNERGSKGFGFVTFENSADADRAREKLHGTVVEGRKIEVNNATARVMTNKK
Oligonucleotide | RBNS enrichment (R)
AUAGCAGAGGAUUUUAUACACAAAUAUAUUUUGUUUGUAAUGAGCCAUUCUCAAUAAAUAUUCUCACGUACAGUGGUAGCACCCUUUGUCUUGUCGUCAUGAAAGCCCUA | 0.32
GUACAGUCCUGGGGGUAAGGGGAUGACAUGCCCAGGUGUCAGCUCAAAGGAUCUCUGCAUCAUCUUGAGGUGGGAGGCAGGGAAAGGAGCGCCAAUGAGGUUCCCUGCAA | 0.937
AUUUUUUUUCUACAUUGAAAAUAGAAACUGCUUCCUUUCUUCUUUCCAGUCAGCUAUUGGUCUUUCCAGCUGUUAUAAUCUAAAGUAUUCUUAUGAUCUGUGUAAGCUCU | 0.528
UAAAACCAAUUUCUACACUAAAGUUGUCAAAUGUUAGAAGAAUCCUGUGUUCAGUUAUGAGACUCUUUGCAUAGUAUAGGGACUUGAAAGUUUUAUGAGACGGGUGUAAU | 0.591
UCCUCCUUCCCUUCAUAAGGACUUUUUUUGUCUUUCUUUAACGCCCAGGCUUCGUCUUAUUUCUACUGUUUUUGUCGCAACUUCCAUUGAUUUAUGUCCCUUCCCUCCCC | 1.88
UCCAGGUAGGACAGCUGCUCCCCAAGCCUCCUGAGGACACAGGAAGAGACGGAAGGAGCACCUUGACAGACUUGUGUGAGUCUUCUCGAAGGAGGGUUGACUCAGAACCC | 0.62
UGACUUUUUCUUAAGUAGCUAAAGACCGAGAGUAUACUAUCUUUAGGGAUAGUCAUUUCUCAAAUGAGUUCUCUAAUAGAGAUUUUGUUCCUACAAUGUAGUCUGCACUG | 0.298
UGUGGAUGCAUGGCUAUCGCCCUGAACAGUCCCUGCAGCUACUUGUGUUAACACAGAACUGAUGUUUAGCAUUCUGCCGCUUUCGUAUUUAUGUAACAAUUCCUUAAAGC | 0.53
UUCAAUAGAAGCUGGAUCCUUAAUACUGCAUUUUCUGAAUUCUGUUUUAAUAUUUGUGUUAAAGUAGACAUAGCUGAACUCACAUGGAAUCCUGGAGUUUUGUUAUCAGC | 0.379
AUUCAGCCCGUUUUUUAAAAAAGCUAAAUACAGUAGCAGCCAGCAGCCAGUCACUAAGAAAGACAGUCUGCCUGGCAGCUCCUGGUGAACCUGCCUUUCUGUGAAUGUGU | 0.311
CCGGCCUUCUCUUCCGACAGGAUGCACACUUGUGGACCACAACCCUAAGGUCUUGUGCCAGCAUCUACCCACACCUGGUUCUGUUCACUGUGGUCUGCCCACACCUGUCU | 0.919
GAACCUUUCCCCUGCUAUCUCCCUUCCUGCUUCGAAGGACUCAUUCUUUCCUCCCACUUCCACCCCAACAUAGAGUAGUAUUUGCUUUUUAGUCCAUUUUGUUUUCAAUA | 1.12

Study 4
Target: Hepatocyte nuclear factor 3-alpha (Foxa1, Mus musculus, UniProt P35582, residues 1-468, full length assumed)
Sequence of UniProt P35582 (whole entry, looked up): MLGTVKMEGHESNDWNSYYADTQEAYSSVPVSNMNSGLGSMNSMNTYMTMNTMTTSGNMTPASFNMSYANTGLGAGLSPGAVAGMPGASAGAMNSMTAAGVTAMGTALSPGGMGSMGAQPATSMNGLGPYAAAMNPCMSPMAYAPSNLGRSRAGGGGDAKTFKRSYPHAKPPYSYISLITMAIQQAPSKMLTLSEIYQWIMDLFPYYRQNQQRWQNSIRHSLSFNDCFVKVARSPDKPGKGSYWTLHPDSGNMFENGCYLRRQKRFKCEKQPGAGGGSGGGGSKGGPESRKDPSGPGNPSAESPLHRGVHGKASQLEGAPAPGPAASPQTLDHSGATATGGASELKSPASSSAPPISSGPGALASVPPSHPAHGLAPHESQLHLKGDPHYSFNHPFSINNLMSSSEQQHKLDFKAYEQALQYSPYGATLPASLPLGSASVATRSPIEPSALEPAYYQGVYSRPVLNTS
Method: EMSA with sequencing
Form: double-stranded DNA, one strand shown
Medium: in vitro
Tested at: 10 and 20 nM
Setting: whole designed probe, mean of two concentrations, ends assumed
Reference: negative control set to 0
Reading: higher = stronger binding
Shared flanks, not repeated: GTGAGCGGTGCCCATTGATGGGGAAC … TTTCACTGGGATCGTGGGGAC
Oligonucleotide | normalised bound fraction
AACAAACAAATAAAACAACTAGTATGGAAGCTAGAATAATGTGATGCACCATTACACCAAATATTCAGTCTTAACATGGTTTTTAATATTATGTAATCTTGGAAGGTATTGCCATTGTTCATATGATACAGAATCAATGGCACTCACAATCATCTGAATATATTGAAAAATGGCACCTTCAAATAAAAATTGT | 0.264 ratio
GATTAAATATAGGAAAGTATGTATAAACTTACGTGAATATGCCCTGTTACATTCTACAAATTAAAAGTTGATTAGCTTTCTTGTGATCCCCAAAGTAAACATAAAAATGTATAAGCCTGAAATATTATCAATTAGAAAATATTTGGAGAAATTGCTTCTTAAAATATGGTAGAATATTTTAAGAAGCATTGTT | 0.437 ratio
TTCCATCGTTTGCTTTTACTGTAAAGTAATATTAAGGAATTAGCCAACAGTATTTACTGAGTGACTGGTATTTACCTCTGATCCTTTGAGGACTTGTTTGCATTTCAGCTCAGGTTTTCTGACTAAGGAGATAAAAACATCTCCTGGACTATTTATTTTTTTCCGTGACCTAACCCAAGGACTTTGCACTGGG | 0.413 ratio
TGATGAGAAACATGATAATTATTTAGTCTGAAAGGATCTTCTCCAATAATTTTTTTTTGTCGTCTCCACCCCCTGATACATTCCTGACTAAATGCAAACAAACCTAAATTGAGGGAAATTCTATGCAATACCTAACCATTATTCATCAAATGTACACAGGAGTACAGTGACACAATCATGGTTCACTGTAACC | 0.331 ratio
AAGTCCAAGGTTCTTAGAGGCTTACTGAATGGCTTAGTCATCAACCTGTAGGCAATAATTAATGTGACTCCTACAATATCTCACTCCAACAAAGTCAATAAACTTTTGTGGGTGTTTGTATTAGCTAAGTAAAGGGCTTTTTGTTTTCTAACTTATCTTTGATCTTCTTGGTTGGGAGACCAAACAACATATA | 0.4 ratio
ATCTTCCCCCTCTTCCTTGCCCCACCAGCTCACCTTCCCGGGTTGTTTACTTTGAGTATTTATTTTCAAGCCGGCATTCGTTAACCCTCTTCTGGCGCAAACTGCACATTGGTCTGGATGAATCATGGTCCTTTGGCGACGCCAGGCTCCGGGAGAGCAAAGCACCGTGTCAGGGCCATGATCCGGGGTGGCC | 0.32 ratio
ATCTTCCCCCTCTTCCTTGCCCCACCAGCTCACCTACGGGGGTTATTTGCACAAAGGAAAATAAATAAAGCCGGCATTCGTTAACGCAGTTCTGGCGCAAACTGCTGTTTGCTCTGCATGAATCATGGTCCTTACGCGACGCCAGGCTCCGGGAGAGCAAAGCACCGTGTCAGGCGCATGATCCGGGCTCGCC | 0.389 ratio
ACAGCCTGGTAATACCTCAGGTTCCCAAGAACTCCAGGGCCTGTAAACATGCCAGTCACACGTGGGCCTGCTTAGAAGGCCGATGGCCTTTGAGTAAATAAACAACACCTTGCATAAATCTCTGCACTTTGAGTGGCAAAGAGGCCATTCCCTGAGGGTGACTTGGAAAACCAGAGGTGCAGTGACTCAGCCT | 0.45 ratio

Study 5
Target: UBE2O UBC core domain (UniProt Q9C0C9)
Method: yeast two-hybrid
Medium: yeast
Setting: mostly zero background
Reference: not given
Reading: higher = stronger interaction
B1: TRIM54 RING domain (UniProt Q9BYV2); chain SMDNLEKQLICPICLEMFSKPVVILPCQHNLCRKCANDVFQASNPLWQSRGSTTVSSGGRFRCPSCRHEVVLDRHGV
B2: RNF31 RING domain (UniProt Q96EP0); chain AFLRRLLAQECAVCGWALPHNRMQALTSCECTICPDCFRQHFTIALKEKHITDMVCPACGRPDLTDDTQLL
B3: TRIM60 RING domain (UniProt Q495X7); chain ALVNLQEESSCPICLEYLKDPVTINCGHNFCRSCLSVSWKDLDDTFPCPVCRFCFPYKSFRR
B4: RNF183 RING domain (UniProt Q96D59); chain EQQGRELEAECPVCWNPFNNTFHTPKMLDCCHSFCVECLAHLSLVTPARRRLLCPLCRQPTVLASGQP
Residues (chain): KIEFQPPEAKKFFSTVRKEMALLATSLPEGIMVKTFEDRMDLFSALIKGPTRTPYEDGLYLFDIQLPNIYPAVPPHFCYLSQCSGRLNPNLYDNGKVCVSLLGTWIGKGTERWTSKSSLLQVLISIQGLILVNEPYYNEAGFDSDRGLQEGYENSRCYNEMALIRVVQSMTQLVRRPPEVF
Sequence | lacZ reporter activity
B1 (TRIM54 RING domain) | 0
LDAASGHPLVCPLCHGQYERPCLLDCFHDFCTGCLRGRATDGRLSCPLCQHQTLVKGPSG (Rnf207 RING domain (UniProt Q3V3A7)) | 0
B2 (RNF31 RING domain) | 0
MNDVLENELQCIICSEYFIEAVTLNCAHSFCSYCINEWMKRKIECPICRKDIKSKTYSL (RNF8 RING domain (UniProt O76064)) | 0
B3 (TRIM60 RING domain) | 0
LGTKLEAKYLCSACRNVLRRPFQAQCGHRYCSFCLASILSSGPQNCAACVHEGIYEEGIS (TRAF2 RING domain (UniProt Q12933)) | 0
B4 (RNF183 RING domain) | 0

Excerpt of the above (study 2):
Oligonucleotide | E-score
GCACCGCA | -0.299
CCGTCGGC | -0.402
AATCGTAA | 0.255
AGGCCAAG | -0.15
CAGGACGA | -0.189
GTATCGAA | 0.0974
GATGACAC | -0.129
AAAGAAAG | 0.154
CCCTAAGA | -0.24
